Experimental data from different studies.
Numbered parts are unrelated; each lists some results of a single study.

Series 1
Target: Prothrombin, mature alpha-thrombin (F2, Homo sapiens, UniProt P00734)
Method: aptamer microarray, sandwich
Form: DNA with 2'F-ANA
Medium: in vitro
Tested at: 200 nM
Setting: whole 15-mer aptamer, many near background
With: Cy3 exosite-II aptamer, 400 nM
Direction: higher = stronger binding
Measurement: mean fluorescence intensity
Strand: GGTTGGTGTGGTTGG
2'F-ANA at 1 4 5 11 13 14 15: 61 a.u.
2'F-ANA at 1 4 6 7 10 14: 45.1 a.u.
2'F-ANA at 1 2 7 10 12 15: 74.4 a.u.
2'F-ANA at 2 5 6 7 8 9 13 15: 56.6 a.u.
2'F-ANA at 1 2 5 7 8 9 10 11: 51.1 a.u.
2'F-ANA at 4 5 6 7 10 12 13 14: 47.6 a.u.
2'F-ANA at 2 4 6 8 9 11 12 13 14: 231 a.u.
2'F-ANA at 1 5 6 9 13 14: 44.6 a.u.
2'F-ANA at 2 3 6 7 9: 656 a.u.
2'F-ANA at 1 2 3 7 9 10: 65.8 a.u.
2'F-ANA at 5 7 8 11 12: 158 a.u.
2'F-ANA at 3 4 5 7 11 15: 85.9 a.u.
2'F-ANA at 2 3 5 7 8 9 10 11 13 14 15: 57.8 a.u.
2'F-ANA at 5 7 10 14: 100 a.u.
2'F-ANA at 1 2 4 9 10 15: 51.8 a.u.
2'F-ANA at 1 2 3 4 5 7 8 10 11 13 15: 53.1 a.u.
2'F-ANA at 1 3 5 9 12 14 15: 62.9 a.u.
2'F-ANA at 5 7 8 9 14: 52.5 a.u.
2'F-ANA at 1 2 9 10 11 12 13 14 15: 49.9 a.u.
2'F-ANA at 1 2 3 4 6 8 10 11 12: 66 a.u.
2'F-ANA at 2 4 7 10 11 14 15: 62.7 a.u.

Series 2
Target: RNA binding protein fox-1 homolog 2, RRM domain, GST-SBP tag (RBFOX2, Homo sapiens, UniProt O43251-10, residues 100-194)
Method: RNA Bind-n-Seq
Form: RNA
Medium: in vitro
Tested at: 365 nM
Setting: natural RNA segment, single round, ends assumed
Relative to: no-protein control
Direction: higher = stronger binding
Measurement: RBNS enrichment (R)
Constant ends, left off below: GGGAGUUCUACAGUCCGACGAUC … UGGAAUUCUCGGGUGCCAA
CAUUCCCAUUGGACUCAUGCACCUCCCGGAUGGUUUUUGUUUUUUUCGGGGGUUCUUUGGGGUUUGUUUGUUUGCUUCUUUUCCAGAGUGUGGAAAGUCUACAGUGCAGA: 3.09
UCGGAAACUAUUUUUAUGUAAUUAAUGUAUGCUUUCUUGUUUAUAAAUGCCUGAUUUAAAAAGAAAAGAGCUUGGCAUAUUUAUCUAUUUCGCUGUGUACCUGUUAGUCC: 15.1
GUUUCUCUGUGCCCUAAGAGCACAUUGUUUAUUAGCCAGGGUGGAGCGUUUUCGACCUUAUUAAACCUCUUUUAGUGCUUCUAAGCAAGUCAGGUCUGUGGCUCUGAGGC: 0.413
GAAUGUAUGCAAUGUGUAAAAAAUGCAAAUGGCUGUAUGCAUUGAAUAAAAAUAAUAUACAAUUAGAGUAAGAAGUUUGUUUUUUCCCUUUCCUAUUCUCUUCCUUUCUC: 1.12
CAAACCAGUUAGCAACACAAUAUUUAUGUUUAAAUUUAUCAUUAAAGUACAACAGUCAUUUAACACAGGUGUAACUAUGGAUCAUUUUCUAAUGUGUAAUUUUGACUUCU: 0.493
UGGUUACAUCCCGUCCAGUCAGGAAGGAAAAGAAAAGGAAAAGUGCCUCGCUGGCUUCCUCCUUUUCACACACUCCAAUACUUUAAUGCAUGGAACAGGUCUGCCUAUGU: 0.666
UAUUUUGAAAGAUUUAUAUAUGAUGAAUUCUGGAUAUAUGACCAAUAAAACUGAUGAAGCAAAACCUGAGCAGUUGAUUUUGUUCACAUCAGCUUCUCCUGCCACAUGCA: 2.57
CAGUGAUGGAGAAUCACUGUUGAUUGAGAUUUUGGUUUCCAUGUGAUUUGUUUUCUUCAAUAGUCUUAUUUUCAGUCUCUCAAAUACAGCCAACUUAAAGUUUUAGUUUG: 0.428

Series 3
Molecule: PhoQ, residues 284 288 289 292 302 303 AANNSF
Method: Sort-seq
Refers to: YFP reporter
Medium: E. coli
Setting: PhoQ-PhoP variant library
With: 10 µM Mg2+
Relative to: high Mg2+ state
Direction: higher = stronger signaling
Measurement: fold induction
PhoP, residues 12 14 15 18 19 VGHWL (Escherichia coli, UniProt P23836): 2.36
PhoP, residues 12 14 15 18 19 TPWTL (Escherichia coli, UniProt P23836): 0.878
PhoP, residues 12 14 15 18 19 LHHYF (Escherichia coli, UniProt P23836): 41.6

Series 4
Target: Hepatocyte nuclear factor 3-alpha (Foxa1, Mus musculus, UniProt P35582, residues 1-468, full length assumed)
Method: EMSA with sequencing
Form: double-stranded DNA, one strand shown
Medium: in vitro
Tested at: 10 and 20 nM
Setting: whole designed probe, mean of two concentrations, ends assumed
Relative to: negative control set to 0
Direction: higher = stronger binding
Measurement: normalised bound fraction
Constant ends, left off below: GTGAGCGGTGCCCATTGATGGGGAAC … TTTCACTGGGATCGTGGGGAC
Residues (chain): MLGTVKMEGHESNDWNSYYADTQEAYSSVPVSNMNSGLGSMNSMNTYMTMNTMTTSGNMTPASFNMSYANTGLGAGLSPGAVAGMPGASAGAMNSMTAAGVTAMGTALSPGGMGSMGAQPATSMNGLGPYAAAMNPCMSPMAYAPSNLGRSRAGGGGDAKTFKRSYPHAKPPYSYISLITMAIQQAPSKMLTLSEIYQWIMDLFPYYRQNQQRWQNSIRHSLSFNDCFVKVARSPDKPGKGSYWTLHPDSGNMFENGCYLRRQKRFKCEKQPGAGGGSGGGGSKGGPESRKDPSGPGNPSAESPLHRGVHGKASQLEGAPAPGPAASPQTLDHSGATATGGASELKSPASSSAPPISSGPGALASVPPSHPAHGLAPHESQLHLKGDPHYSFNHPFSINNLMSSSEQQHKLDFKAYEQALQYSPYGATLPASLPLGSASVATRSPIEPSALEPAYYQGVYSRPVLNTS
CCAGTGAATATATATATATATTTTCAAATTTGATTTTCCAAATGTCCCGGGAGCACATGCCCTGTTTCCTAATGAATCTCCGGGGTTCTTCAGAGTAAACAACAAAACATAGCATTCCTGCTTTGGGACTCCAGCCCTCCACCCTGGGGAGCACGTGTCTCCTTGACCATGGTCATCTCCTACTAGACCGGAG: 0.286 ratio
TAGTAGACAATAACCATGAAGTCTAACTTCCCTATAGCCAAGTGATCTCAGATAATTCCCTTCATGCAGTGACCACAACCCACAGAAAACGCATGTTTATATTATGACTCAGTGCATACATTCAGGCACACATTCACACTATGTGATAGACTCTATTTGTTAAAATGGTGTAATCTATTTTTTTTATTCTATT: 0.205 ratio
CACTAGCCAAGCAAATGCTACCTTTCCTAAATTACGCCGTGGTATTGTGTACGACAGCAGCAGGGTTGCTATTTTAAAATGGGATTGCGTAAAATAAACATGTGCCCAGATGACACGTAGTACTAAGTTGATGATTAATTGATGCTCTGGTACGGCCTCGTGCTTTCCAGTGCTTCCATTTGTGTGACGATCC: 0.241 ratio
TAAGCTTACACTACACCATGCTAGGGAAGAGAATAGGTCATTTCCAGGTGTCTCTGTATGGAAAAGAGAATGTTTTCCTTTCCAGTAGCTTAAGTAATCTTCAAGTTTCATTGGCTCTGTTAGGGCTATTTTCATTTATTTCTGAACAAATGATCAGGATACACTAACTGTAGAGCCAATCACATTGTAACTA: -0.0352 ratio
AGACAAAAAATGTAGTTGTTCAACAGCTCAGGGAAGAAAGCCTGAGCTTGCCACAGGAGGAGACAGGGCTAAGGCTGGGGAGTTGGGGGGAGTGTAAATAAAGTAGAGGACTGGGCAGAGCTACAAGAAATATTTAGCATTCCTGGCTTCCCACAAAGGGTAGGTCAAGGAGAGGGAATGAGCAGTTGGGATG: 0.23 ratio

Series 5
Target: Histone acetyltransferase KAT6A, winged helix 1, GST fusion (KAT6A, Homo sapiens, UniProt Q92794, residues 1-85)
Method: protein binding microarray
Form: double-stranded DNA, one strand shown
Medium: in vitro
Tested at: not given
Setting: 8-mer, flanks averaged, mean of 2 arrays, mostly near background
Relative to: not given
Direction: higher = stronger binding
Measurement: E-score
Residues (chain): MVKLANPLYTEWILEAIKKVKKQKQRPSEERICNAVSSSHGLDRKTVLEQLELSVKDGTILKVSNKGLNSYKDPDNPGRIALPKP
GGTTAGAC: -0.0779
GCAGTCGA: 0.0358
CAGTAATG: -0.0589
CACTAAGA: -0.185
CCGGATCA: 0.116
ATCTTTTC: -0.11
GGATTCTA: -0.188
ACTCATCC: -0.145
GAAACGCC: 0.204
GACCCCGA: -0.00203
CAGTACCA: -0.224
GAGTTACA: -0.0221
AACCCAAA: -0.14
ATTAAGAG: -0.0814
CCGCTGCG: 0.362
GCATAATA: -0.0547
AATGGACA: -0.203
CTACAGAC: -0.178
TACCAGTA: -0.171
TAATGGGA: -0.192
ACTTTACT: -0.0873
TATCTAAA: 0.104
AGTTAGTG: -0.183
ACTTTTTG: -0.19
CCCGTACC: 0.313

Some of these lines once more (series 2):
CAUUCCCAUUGGACUCAUGCACCUCCCGGAUGGUUUUUGUUUUUUUCGGGGGUUCUUUGGGGUUUGUUUGUUUGCUUCUUUUCCAGAGUGUGGAAAGUCUACAGUGCAGA: 3.09
UCGGAAACUAUUUUUAUGUAAUUAAUGUAUGCUUUCUUGUUUAUAAAUGCCUGAUUUAAAAAGAAAAGAGCUUGGCAUAUUUAUCUAUUUCGCUGUGUACCUGUUAGUCC: 15.1
GUUUCUCUGUGCCCUAAGAGCACAUUGUUUAUUAGCCAGGGUGGAGCGUUUUCGACCUUAUUAAACCUCUUUUAGUGCUUCUAAGCAAGUCAGGUCUGUGGCUCUGAGGC: 0.413
GAAUGUAUGCAAUGUGUAAAAAAUGCAAAUGGCUGUAUGCAUUGAAUAAAAAUAAUAUACAAUUAGAGUAAGAAGUUUGUUUUUUCCCUUUCCUAUUCUCUUCCUUUCUC: 1.12
CAAACCAGUUAGCAACACAAUAUUUAUGUUUAAAUUUAUCAUUAAAGUACAACAGUCAUUUAACACAGGUGUAACUAUGGAUCAUUUUCUAAUGUGUAAUUUUGACUUCU: 0.493
UGGUUACAUCCCGUCCAGUCAGGAAGGAAAAGAAAAGGAAAAGUGCCUCGCUGGCUUCCUCCUUUUCACACACUCCAAUACUUUAAUGCAUGGAACAGGUCUGCCUAUGU: 0.666
UAUUUUGAAAGAUUUAUAUAUGAUGAAUUCUGGAUAUAUGACCAAUAAAACUGAUGAAGCAAAACCUGAGCAGUUGAUUUUGUUCACAUCAGCUUCUCCUGCCACAUGCA: 2.57
